Published values pooled from the literature.
A part holds a random share of what one study measured.

Set 1 — method: RNA Bind-n-Seq; molecule type: RNA; sample: in vitro; concentration: 365 nM; reference: no-protein control; direction: higher = stronger binding; endpoint: RBNS enrichment (R)
Target: RNA binding protein fox-1 homolog 2, RRM domain, GST-SBP tag (RBFOX2, Homo sapiens, UniProt O43251-10, residues 100-194)
Setting: natural RNA segment, single round, ends assumed
Constant ends, left off below: GGGAGUUCUACAGUCCGACGAUC … UGGAAUUCUCGGGUGCCAA
Construct (chain): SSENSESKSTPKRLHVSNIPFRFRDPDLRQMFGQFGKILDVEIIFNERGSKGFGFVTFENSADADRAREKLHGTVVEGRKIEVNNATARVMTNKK
ACAGUGCCUGUCCACCCACCCUGCGUGUCACUGUGGCGGCCUGGCUGUCGCUGCUUUUUGUCCUCUGCCGUGUUUGCGCGGCCUCAGUGCCCUCCCUGGUGCGUCUGCGC: 0.363
UAUUAACUUGUUCAAUUCCCUUAACUCUAUGAAAUAGGCAUUAUUACUACCCCCAGGUUUUCAAAUGAAUUAACAGAAGCAGAGGUGUUGAGUAAAUGUAUCCAAGAGAC: 0.376
AACUUGUUCACAUUGUUAAUUUCUGUCCAGAGACCUGAAACUGCUUAAGUAUGGGAACAGACUGAAAUGGUGUUUCAACCUGCAAGAGACAGAAGCAUAGACAAGUAUAU: 0.415
CUCUGUUUUGUGGACAGGCAGCAGCCUCCGUAGGCACCCGCACCCUGCCUUGCUGGAGGAGAUGGGAUGGGGCGGGAGGUGGCUUCACCAUAACUAUUUUUAAUAUGGGU: 0.412
UCCUUGAGUGCCCAGGCUUGAAGCACAUUGGCUGUCAUUCUGAUGUGACUCGAGAUUGCAGUUGCAACUUGGCAGCUUUUUUCUACUGGACAGGAAGAUGGCAGAAGCUA: 0.358
ACUAUCCAUUUUGUAAAACGGAUUUAAGGACAAUUAUCAGGUAUAAUUAAAAUUCUGUUGAAGAAGAUAAAGUUUCAGAUAUGCCACUGGCUUGAGGAUUAGCUAAAGGU: 0.51
UUGUUGUUGUUGUUUAUUUGUUAUUUUAAAGGUAAAUUGCACUUUUAAAAAAAUAAUUGGUUGACUUAAUAUAUUUGCUUUUUUUCUCACCUGCACUUAGAGGAAAUUUG: 5
UUACUUUUCAGUUAGGUAACUGUGUGAUCCAGUUCUUCCAGCUGCUUCUAUAAUGAGGCACAUAUUAAUACAGUUUUUAUAUGGUAUCUAUGAAAGAGUUCACUUCAUAG: 0.653
GCGAGUCAGAACCAGCAUGGAGUGUUUCUGCUGAUUUCUGUCCCUGCAUCUCCCCUGGCCCCGUUCCCUGCCCUCCUCCCUUCCCUGGGUGACUGCUCUGAGAGGCACUU: 2.14
AUGUAUUACUCUUCUUCUUUUAAUUUAUGUUAGAACGAGAAAAGCUUAAUACAACAGGUGCCCAGAAUACUUGCAGUGUAAAUGAAGAUUGGAUUUUUGUAUAAAAAGAU: 0.603
CUUCUAAUCUGGAAACCUGUGAAGCCUCAGCCCUUGAGAGGGCCCGAGAUGGAUCAGGGAGUUCUAGCUGCACACACCCCGAGCGCCUGAGCCCUCAGAAUGCCCACCAU: 0.311
UCAUCUGGUUGGUUUUCAGCCUAGAAUUUGAUACGCUUUUUAGAAAUAUGCCCAGAAUAGAAAAGCUAUGUUGGGGCACAUGUCCUGCAAAUAUGGCCCUAGAAACAAGU: 0.373

Set 2 — method: RNA Bind-n-Seq; molecule type: RNA; sample: in vitro; concentration: 200 nM; setting: whole 134-nt RNA, ends assumed; added: 150 mM KCl; reference: input library; direction: higher = stronger binding; endpoint: log2 enrichment
Target: Fragile X messenger ribonucleoprotein 1, C-terminal low-complexity region (Fmr1, Mus musculus, UniProt P35922)
Constant ends, left off below: GGGAGUUCUACAGUCCGACGAUC … UGGAAUUCUCGGGUGUCAAGG
UUCUCUCAUUUCUUCUGAAAUACAGGGCAAAUUGGAUCAAGGCAGUUCAGAUGUGUAGCAAACCCAGAGAAUUUGCAUUGGCUUUAGCCA: 0.94
UAACUUUAGAGGAGGAUCUGAUGGAUAUGGCACUGGACGUGGAUUUGGGGAUGGCUAUAAUGGGUAUGGAGGAGGACCUGGAGGUGGCAA: 0.457
AGUCCUGUGCUACACAUCGUAUGUACCGAAUCGGGUUUGGGUUUGGGAAAAAAAGGGAAAGUAUUAUGUUACGCCGUUCGGAUCUGCACU: 0.0958
CUGUGCUACACAUCGUAUGUACCGAAUCGGGGUUUUUUUGGGUUUUUUUGGGUUUUUUUGGGAAAGUAUUAUGUUACGCCGUUCGGAUCU: -0.233
UGGGAGGUGGAUUUUGUUUAUUUUUUUAGCUCAUUUCCAGGGGUGGGAAUUUUCUUUUAAUAUGUGUCAUGAAUAAAGUUGUUUUUGAAA: 0.156
UCCUGUGCUACACAUCGUAUGUACCGAAUCGGGGUUUUUGGGGUGGGGUUUUUUUGGGGAAAGUAUUAUGUUACGCCGUUCGGAUCUGCA: 0.855
UAACUUAAGAGGAGGAUCUGAUGGAUAUGGCAGUGGACGUGGAUUUGGGGAUGGCUAUAAUGGGUAUGGAGGAGGACCUGGAGGUGGCAA: 0.329
AGUCCUGUGCUACACAUCGUAUGUACCGAAUCGGUUUUUUUGGAAAGGAAAAAAAGGAAAGUAUUAUGUUACGCCGUUCGGAUCUGCACU: -1.09
AGUCCUGUGCUACACAUCGUAUGUACCGAAUCGGGAAAAGGGAAAAGGGGAAAAGGGGAAAGUAUUAUGUUACGCCGUUCGGAUCUGCAC: 0.14
CACAGAGAACACGCACCCACACAGACACAGAGGGAAGGGGUUGGGAUGGGGACAGGGUGCACAGCAGGGCGGGGUAGGACCCCAGCCCCU: 1.21
UGGCCCUGGUGGCAUGCGGGGAGGAAGAGGUGGCCUCAUGGAUCGUGGUGGUCCCUGUGGAAUGUUCAGAGGUGGCCGUGGUGGAGACAG: -0.0198
UGGGAGACGAUCGCGAUGAACACGGUGCUGUCGCGGGCGAACUCACUGUUCGCCUUCUCGCUGAGCGUGAUGGCGGCGCUCACCUUCGGC: -1.57
UCAAGUCCUGUGCUACACAUCGUAUGUACCGAAUCGGGAAAGGGUUUGGGAGGGAAAGUAUUAUGUUACGCCGUUCGGAUCUGCACUUCC: 1.23
GUCCUGUGCUACACAUCGUAUGUACCGAAUCGGGUUUUUGGGAAAAAAAGGGUUUGGGAAAGUAUUAUGUUACGCCGUUCGGAUCUGCAC: -0.306

Set 3 — method: RNA Bind-n-Seq; molecule type: RNA; sample: in vitro; concentration: not given; reference: input RNA pool; direction: higher = stronger binding; endpoint: bound/input enrichment
Target: RING finger protein unkempt homolog, zinc fingers 1-6, GST-SBP tag (UNK, Homo sapiens, UniProt Q9C0B0, residues 30-357)
Setting: RNA with constant flanks, human-mouse chimeric sites, ends assumed
Constant ends, left off below: GGGAGUUCUACAGUCCGACGAUC … CAACAGAGGAUUGAGCAUCA
Target sequence (chain): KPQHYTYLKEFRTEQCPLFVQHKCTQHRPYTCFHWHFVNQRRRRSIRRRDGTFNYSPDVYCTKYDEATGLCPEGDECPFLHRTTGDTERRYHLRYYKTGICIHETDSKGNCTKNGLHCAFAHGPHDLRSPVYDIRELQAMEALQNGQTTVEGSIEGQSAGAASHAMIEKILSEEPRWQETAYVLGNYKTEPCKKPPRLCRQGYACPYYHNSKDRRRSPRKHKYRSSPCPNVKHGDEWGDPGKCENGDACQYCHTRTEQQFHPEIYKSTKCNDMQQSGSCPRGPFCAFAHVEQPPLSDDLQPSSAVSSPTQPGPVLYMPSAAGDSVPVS
UCUGGUCACACUCGUGUGUAUGGUGUUUGCUUUGUGGAUACUUCACUGGGCAAGUUUUUCAUCGGCCAGUUUUCGGAUGACCGCCACUGUUCCAGAUUUAGGACGCUAGUGGCACACUAU: 0.168 ratio
CGCUGGCCCAAGCUGAUGGACUCUGAUCUUGAUCUCUUCUCAGGCACGUUUGCCUUCUCUUAGUCCCUGUUUUCGGGAUGUUAUGAAUCUCAGUACUGUGGUUUGAAAGCACCAGCUUUG: 0.196 ratio
GGACCAUAAUCAUGGAGGACAUAAUGCAGCUCCCCAAAGCGCGCGUCAACGCCAGCAUGUUACCACAGUAUAUCGACAAGCCUGUCUGCUUCGUGGGGAAGCUGGAAAAGAUUCAUCCCA: 0.164 ratio
CAGCUGCAGACAGAAAAGGAUGAAAAGGAGCUGUAUAAGGUACAUUUGAAGAAUACAGAAAUAGAAAAUACGAAGCUUGUGUCAGAGAUACAGACUUUAAAAAAUUUAGAUGGAAACAAA: 4.48 ratio
UCAUUUUUCUCUUUUCUUUCUUUCCUUUAGGAAAAGCCUAAAGAUUAGGUUGUAAGAAAAACAGAAGCCAUGUUUCGAAGACCUGUAUUACAGGUACUUCGUCAGUUUGUAAGACAUGAG: 0.208 ratio
AUAAAGGCCAUGUUGAGUGGUCCAGGUCAGUUUGCUGAGAAUGAAACCAACGAGGUCAAUUUUAGAGAGAUACCUUCACAUGUGCUAUCAAAAGUGUGCAUGUAUUUUACCUACAAGGUC: 0.106 ratio
AUCAAAUACUUUGGGGACAUCAUUAGUGUGGGACAGAGAUUGUUGCAAGGAGCUCGGAUCUUAGGGAUUCCAGUUAUUGUAACAGAACAAUACCCCAAAGGACUUGGCAGCACCGUUCAA: 0.189 ratio
CUGAGGAUACCACUGAAGAGACCUUAAAAGAAUCAUUUGAGGGCUCUCGUUCGGGCAGAAUAGUCACUGAUCGGGAAAACUGGGUCCCCAAAGGGUUUGGUUUUGUAGACUUUAAUAGUG: 0.564 ratio
GACAGUGAAGAAGAAAUUAGAGAAGCAUUCCGUGUGUUUGAUAAGGAUGGCAAUGGCUAUAUUAGUGCUGCAGAACUUCGCCAUGUGAUGACAAACCUUGGCGAGAAGUUAACAGAUGAA: 0.676 ratio
CGCAGAAGGUUAAAGGGUGAGAGUGGGGUGGAAGACUGUGUCAUGGCUCUGGAGACACUGUUCAGUGUCCUGCUUUCUCUGUGCAGACUGAUGGCCCCUUACACGCCUUUUCUCACUGAG: 0.0692 ratio
UCCCUGUUGCUGAAUAAAUGGCUUGUAAAGAAGUUUUUCCAAGCUGUAACCCAUGCUGUUAUUAUAGUUGCUGCAAAAUGUUCUUCCUGAUAUUGAUUUUAUUUGUUCUGACUCUCCCUC: 1.32 ratio

Set 4 — method: protein-binding microarray; molecule type: double-stranded DNA, one strand shown; sample: in vitro; concentration: 0.8 µM; setting: whole 60-bp probe, no competitor; direction: higher = stronger binding; endpoint: fluorescence intensity; constant ends, left off below: … GTCTTGATTCGCTTGACGCTGCTG
Target: Centromere-binding protein 1, full length, N-terminal tag (CBF1, Saccharomyces cerevisiae, UniProt P17106, residues 1-351)
Sequence of UniProt P17106 (whole entry, looked up): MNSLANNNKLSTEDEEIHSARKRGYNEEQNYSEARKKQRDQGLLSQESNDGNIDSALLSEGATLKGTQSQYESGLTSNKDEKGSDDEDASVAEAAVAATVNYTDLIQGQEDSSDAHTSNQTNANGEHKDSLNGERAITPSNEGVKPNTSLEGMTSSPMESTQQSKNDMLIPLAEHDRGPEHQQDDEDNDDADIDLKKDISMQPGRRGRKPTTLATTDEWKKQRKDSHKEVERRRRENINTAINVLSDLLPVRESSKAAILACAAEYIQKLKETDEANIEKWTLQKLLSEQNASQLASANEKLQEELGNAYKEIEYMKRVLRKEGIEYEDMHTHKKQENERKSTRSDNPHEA
GAACACGTTCACCGTTTTCACGTGCACAAATTCTAG: 6360 a.u.
GAATGAACAATTGACCACGCTACAACGGAATTTTAG: 571 a.u.
CCTAACTACTATAAGCACGTCTTATAGCTTCGTACA: 504 a.u.
CTATGGTTGTACTTCCTCGTGTGTCAGATACTTTTC: 570 a.u.
CTATGGGGAATACATGATGTGAATGTGCATAAATTC: 549 a.u.
CTAGGCTCTTCAAACCATGTGACACCAAACTTCTTC: 3860 a.u.
GAACTTTTTCCTTAGCGTGCGTTTATGAAAAAATAG: 598 a.u.
CTATTTGAGCCAAGCCACGCGACGCTCCATACTTTC: 524 a.u.
CTAGACATCCACAAAGGTGACAGAACAAAATCATTC: 511 a.u.
TGTACGAAGCTATAACACGTTTCTATAGTAGTTAGG: 576 a.u.
CTACAGATGCCATATCCCGTGCCATATATACTATTC: 950 a.u.
CTATCCATACATCATCAGATGAAAAAATCTCGCTTC: 537 a.u.
GAAAGTTTATTATTCAACGTGTCCAATTTTCACTAG: 573 a.u.
CTAAATTCAATAGATCGCCTGATGTTTTCTGTGTTC: 537 a.u.
CCTAACTACTATAATCATGTGCAATAGCTTCGTACA: 1010 a.u.
CTACTCAGGTACAGTTGCATCAGGTTGATAGTTTTC: 534 a.u.
CTATAAGCATATAATCAGATGAAAAAAGGAAAATTC: 515 a.u.
GAATAGCTTCCATTACACCTGATGACTATTCTCTAG: 777 a.u.
GAACTATTGGACAGTCTCCTGTCTTACACTAGCTAG: 497 a.u.
GAATAACAAACGTCGCACGCGTTTGAAAGTTATTAG: 563 a.u.

Some of these lines once more (set 2):
AGUCCUGUGCUACACAUCGUAUGUACCGAAUCGGGUUUGGGUUUGGGAAAAAAAGGGAAAGUAUUAUGUUACGCCGUUCGGAUCUGCACU: 0.0958
CUGUGCUACACAUCGUAUGUACCGAAUCGGGGUUUUUUUGGGUUUUUUUGGGUUUUUUUGGGAAAGUAUUAUGUUACGCCGUUCGGAUCU: -0.233
UGGGAGGUGGAUUUUGUUUAUUUUUUUAGCUCAUUUCCAGGGGUGGGAAUUUUCUUUUAAUAUGUGUCAUGAAUAAAGUUGUUUUUGAAA: 0.156
UCCUGUGCUACACAUCGUAUGUACCGAAUCGGGGUUUUUGGGGUGGGGUUUUUUUGGGGAAAGUAUUAUGUUACGCCGUUCGGAUCUGCA: 0.855
UAACUUAAGAGGAGGAUCUGAUGGAUAUGGCAGUGGACGUGGAUUUGGGGAUGGCUAUAAUGGGUAUGGAGGAGGACCUGGAGGUGGCAA: 0.329
AGUCCUGUGCUACACAUCGUAUGUACCGAAUCGGUUUUUUUGGAAAGGAAAAAAAGGAAAGUAUUAUGUUACGCCGUUCGGAUCUGCACU: -1.09
